Results gathered from unrelated publications.
Each numbered part is a random draw from the data of one study; scales do not carry over between parts. Changes are numbered by the printed parent chain.

Series 1
Target: Interferon regulatory factor 3, full length, phosphomimetic (IRF3, Homo sapiens, UniProt Q14653, residues 1-427, S386D/S396D/S398D/S402D/T404D/S405D)
Chain of UniProt Q14653 (whole entry, unmodified, looked up): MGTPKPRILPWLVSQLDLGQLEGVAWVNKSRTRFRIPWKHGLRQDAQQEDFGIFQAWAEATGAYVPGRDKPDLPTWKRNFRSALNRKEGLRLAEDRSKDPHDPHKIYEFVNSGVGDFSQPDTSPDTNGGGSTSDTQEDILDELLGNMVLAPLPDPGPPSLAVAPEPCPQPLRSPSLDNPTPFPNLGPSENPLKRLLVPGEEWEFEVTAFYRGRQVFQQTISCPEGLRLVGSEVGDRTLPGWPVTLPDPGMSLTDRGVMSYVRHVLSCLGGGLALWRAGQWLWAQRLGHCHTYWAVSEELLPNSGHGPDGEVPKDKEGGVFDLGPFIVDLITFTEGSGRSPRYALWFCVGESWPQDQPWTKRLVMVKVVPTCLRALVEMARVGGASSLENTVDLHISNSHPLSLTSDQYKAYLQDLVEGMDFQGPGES
Method: protein-binding microarray
Form: double-stranded DNA, one strand shown
Matrix: in vitro
Tested at: 2540 nM top
Setting: 60-bp whole probe
Together with: salmon DNA 0.4 mg/ml
Reference: random background probes
Direction: higher = stronger binding
Shared flanks, not repeated: GCCTAGCAC … GTCTTGATTCGCTTGACGCTGCTG
`TTTCCTTTGCCTCTGAGGCTGTGCTAG` — result for “fitted relative affinity”: 6.4 z-score.
`GACGATAGCGGGACTGGAGACGTGCTA` — result for “fitted relative affinity”: -0.708 z-score.
For `TCATTTTTTTACTTCGGACTGTGCTAG`, “fitted relative affinity” read 1.06 z-score.
`TTAGATCTCAGTCTTGATTAGTGCTAG`: “fitted relative affinity” 0.258 z-score.
`TTAGGTATCCTCCTCCTTTAGTGCTAG` — result for “fitted relative affinity”: 2.3 z-score.
`GACGAACTGGGTTTCGAGACGTGCTAG` — result for “fitted relative affinity”: 0.829 z-score.
For `GACGTACTGGGTCTCGGGACGTGCTAG`, “fitted relative affinity” read -0.588 z-score.
For `TCACTTTCACTTCTCCCACTGTGCTAG`, “fitted relative affinity” read 6.87 z-score.
`TTAGATATGAGACTGGATTAGTGCTAG`: “fitted relative affinity” -0.254 z-score.

Series 2
Target: ABI1, truncated, D143A, DHFR fusion (Arabidopsis thaliana)
Method: DHFR PCA, deep sequencing
Matrix: yeast
Setting: methotrexate growth selection, single substitutions
Together with: (+)-ABA 0 µM
Reference: wild-type fitted maximum
Direction: higher = stronger binding
Parent: PYL1, truncated, DHFR fusion (Arabidopsis thaliana); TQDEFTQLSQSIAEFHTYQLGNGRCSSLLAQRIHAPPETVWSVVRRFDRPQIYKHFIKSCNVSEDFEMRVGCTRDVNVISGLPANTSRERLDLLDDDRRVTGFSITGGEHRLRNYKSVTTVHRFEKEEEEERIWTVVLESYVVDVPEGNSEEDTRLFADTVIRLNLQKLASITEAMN
Under “relative binding score”, `E130I` is recorded as 9.61%.
Under “relative binding score”, `R32E` is recorded as 30%.
`V76P` — result for “relative binding score”: -4.68%.
`V44L`: “relative binding score” 4.35%.
`V137C` — result for “relative binding score”: -8.29%.
For `H122P`, “relative binding score” read 7.13%.
`S11Q` — result for “relative binding score”: 26.3%.
For `E129G`, “relative binding score” read 55.6%.
Under “relative binding score”, `K126S` is recorded as 58.7%.
For `N61W`, “relative binding score” read 14.4%.

Series 3
Target: CCNA1, cyclin fold, Cln2 fusion (human)
Method: yeast growth competition, sequencing
Matrix: yeast
Setting: weak parent motif
Reference: not given
Direction: higher = stronger binding
Parent: SGO1 docking peptide (human); PLAKRALKYTDEK; partner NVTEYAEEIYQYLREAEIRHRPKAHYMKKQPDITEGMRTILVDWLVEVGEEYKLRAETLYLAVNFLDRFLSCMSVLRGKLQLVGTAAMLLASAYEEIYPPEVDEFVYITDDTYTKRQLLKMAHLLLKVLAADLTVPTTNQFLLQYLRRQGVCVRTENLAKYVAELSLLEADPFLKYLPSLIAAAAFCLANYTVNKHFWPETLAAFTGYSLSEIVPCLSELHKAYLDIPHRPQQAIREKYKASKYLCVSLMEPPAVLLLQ
`PLAKRALAYTDEK [K8A]` — result for “normalised enrichment score”: 0.355.
For `PLAKRALKATDEK [Y9A]`, “normalised enrichment score” read 0.262.
`PLAKRALKYTAEK [D11A]`: “normalised enrichment score” 0.151.
`PLAKRALKYADEK [T10A]`: “normalised enrichment score” 0.493.
For `PLAKRAAKYTDEK [L7A]`, “normalised enrichment score” read 0.0888.

Single results of other studies
For `PhoQ, residues 284 288 289 292 302 303 QWGLFV`, the fold induction was 0.933 (PhoP, residues 12 14 15 18 19 NQAHL (Escherichia coli, UniProt P23836); Sort-seq, refers to: YFP reporter; E. coli; PhoQ-PhoP variant library, together with: 10 µM Mg2+; reference: high Mg2+ state, higher = stronger signaling).

A few entries again (series 2):
For `H122P`, “relative binding score” read 7.13%.
`S11Q` — result for “relative binding score”: 26.3%.
